# Assay results collected from several papers.
# Numbered parts are unrelated; each lists some results of a single study.

# Block 1
# Target: Histone acetyltransferase KAT6A, winged helix 1, GST fusion (KAT6A, Homo sapiens, UniProt Q92794, residues 1-85)
# Method: protein binding microarray
# Form: double-stranded DNA, one strand shown
# Medium: in vitro
# Tested at: not given
# Setting: 8-mer, flanks averaged, mean of 2 arrays, mostly near background
# Reference: not given
# Direction: higher = stronger binding
# Construct (chain): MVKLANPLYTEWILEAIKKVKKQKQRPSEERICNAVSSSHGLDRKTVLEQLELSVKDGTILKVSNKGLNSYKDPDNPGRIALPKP
Sequence,E-score
AGTAGACG,-0.0552
CGACCTCA,-0.16
AGGACGAA,-0.0556
CACCTTCG,0.000255
AAGCTGTG,-0.194
CGCTCTAA,0.191
ATCCGCCG,0.401
GTTCTAAA,-0.00229
CCGGTGAC,0.133
TCGATTAA,-0.138
CGCCAACG,0.195
CTGATTGA,-0.174
AGGTGACC,-0.149
AACCACCC,0.0398
CTTGGAAC,-0.146
ACAGCCAA,-0.0833

# Block 2
# Target: Prothrombin, mature alpha-thrombin (F2, Homo sapiens, UniProt P00734)
# Method: aptamer microarray, sandwich
# Form: DNA with 2'F-ANA
# Medium: in vitro
# Tested at: 200 nM
# Setting: whole 15-mer aptamer, many near background
# Added: Cy3 exosite-II aptamer, 400 nM
# Direction: higher = stronger binding
# Sequence: GGTTGGTGTGGTTGG
Modification,mean fluorescence intensity
2'F-ANA at 1 3 5 7 10 12 13 14,43.3 a.u.
2'F-ANA at 1 2 6 7 8 9 12 14,69 a.u.
2'F-ANA at 1 4 8 9 10 14,45.1 a.u.
2'F-ANA at 1 2 4 5 6 12 13,70 a.u.
2'F-ANA at 2 3 5 8 10 11 12 13,55.5 a.u.
2'F-ANA at 3 5 9,138 a.u.
2'F-ANA at 2 3 6 11 12 13 14,426 a.u.
2'F-ANA at 4 5 6 7 10 11 12 13 14,81.6 a.u.
2'F-ANA at 2 4 6 9 10 11 13 14 15,71 a.u.
2'F-ANA at 2 3 5 9 10 11,54.6 a.u.
2'F-ANA at 3 5,144 a.u.
2'F-ANA at 1 2 4 5 9 10 11 12 13 15,48.4 a.u.
2'F-ANA at 1 2 3 7 8 9 13 14,99.4 a.u.
2'F-ANA at 1 2 3 4 11 12 13,229 a.u.
2'F-ANA at 2 3 5 6 7 8 9 13 14,51.6 a.u.
2'F-ANA at 3 7 8 9 10 11 12,614 a.u.
2'F-ANA at 4 5 9 10 11 15,47.2 a.u.
2'F-ANA at 1 3 4 5 7 9 14 15,103 a.u.
2'F-ANA at 4 9 11 12 14,106 a.u.
2'F-ANA at 2 4 8 9 13 15,199 a.u.
2'F-ANA at 2 3 6 10 12 13 15,360 a.u.
2'F-ANA at 1 2 4 5 6 9 12,133 a.u.
2'F-ANA at 1 3 4 7 8 13 14 15,79.9 a.u.
2'F-ANA at 3 4 9 10 12 13 14 15,212 a.u.
2'F-ANA at 1 3 4 6 7 8 9 11 13 14,64.2 a.u.

# Block 3
# Target: Fragile X messenger ribonucleoprotein 1, C-terminal low-complexity region (Fmr1, Mus musculus, UniProt P35922)
# Method: RNA Bind-n-Seq
# Form: RNA
# Medium: in vitro
# Tested at: 200 nM
# Setting: whole 134-nt RNA, ends assumed
# Added: 150 mM KCl
# Reference: input library
# Direction: higher = stronger binding
Sequence,log2 enrichment
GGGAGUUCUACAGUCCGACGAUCUCCUCAAGUCCUGUGCUACACAUCGUAUGUACCGAAUCGGGCGGCGGCGGGGAAAGUAUUAUGUUACGCCGUUCGGAUCUGCACUUCCAGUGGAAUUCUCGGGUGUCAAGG,0.33
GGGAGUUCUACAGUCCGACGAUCUCCUCAAGUCCUGUGCUACACAUCGUAUGUACCGAAUCGGGAGGAGGAGGGGAAAGUAUUAUGUUACGCCGUUCGGAUCUGCACUUCCAGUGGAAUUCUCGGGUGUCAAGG,0.296
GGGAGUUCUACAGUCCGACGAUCCCUGUGCUACACAUCGUAUGUACCGAAUCGGGGUUUGGGGUUUUUGGGGUUUUUUUGGGGAAAGUAUUAUGUUACGCCGUUCGGAUCUGCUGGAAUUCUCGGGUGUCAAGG,0.571
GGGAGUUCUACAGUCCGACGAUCGUCCUGUGCUACACAUCGUAUGUACCGAAUCGGUUUUUGGGGUUUUUGGGUUUUUGGGAAAGUAUUAUGUUACGCCGUUCGGAUCUGCACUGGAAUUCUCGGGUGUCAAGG,-0.142
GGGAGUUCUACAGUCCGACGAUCACCAUGCAGGUGGGCAUCUUUGGGAAGUGGGAAAAGGGGGGGAUAGGGAGGGGGGUAACACUUUGGGAACAGGUGGUCCCAGGUCGUUUCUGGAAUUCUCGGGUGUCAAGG,0.753
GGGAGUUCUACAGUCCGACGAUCUCAUUUUUUUCCCUGCCGGAAUUUUAGCAUUGAUAUGAACCAUGGACAAGUAUAUUCUGCUGCCACAAAGACUGUAAAGUGCUUCAUUUCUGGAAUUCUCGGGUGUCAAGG,0.332
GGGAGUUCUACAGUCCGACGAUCAGUCCUGUGCUACACAUCGUAUGUACCGAAUCGGGUUUUUGGGAAAAAAAGGGAGGGAAAGUAUUAUGUUACGCCGUUCGGAUCUGCACUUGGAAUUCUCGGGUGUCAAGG,0.576
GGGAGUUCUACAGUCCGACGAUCGCAGGAAGUAAAAACAAAUGGAAAUGCUUCGGAUAGUGGCAAAAGUGGGGGUUGCUAAGGAAAGGGUGGGAUGGGAGUGGGUAAAGAGUUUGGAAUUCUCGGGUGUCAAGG,0.363
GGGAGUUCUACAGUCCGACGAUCGCAGGAAGUAAAAACAAAUGGAAAUGCUUCGGAUAGUGGCAGGGGUGGGGGUUGCUUAGGAAAGGGUGGGAUGGGAGUGGGUAAAGAGUUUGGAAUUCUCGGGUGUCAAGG,0.213
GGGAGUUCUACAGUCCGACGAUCUAACUUUAGAGGAGGAUCUGAUGGAUAUGGCAGUGGACGUGGAUUUGGGGAUGGCUAUAAUGGGUAUGGAUGAGGACCUGGAGGUGGCAAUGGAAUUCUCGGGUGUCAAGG,0.168
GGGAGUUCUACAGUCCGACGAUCCCUGUGCUACACAUCGUAUGUACCGAAUCGGGGUUUUUGGGGUUUUUGGGGUUUUUGGGGAAAGUAUUAUGUUACGCCGUUCGGAUCUGCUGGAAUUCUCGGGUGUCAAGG,0.599
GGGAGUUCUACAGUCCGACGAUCCUCAAGUCCUGUGCUACACAUCGUAUGUACCGAAUCGGGUUGGUUGGGGUUGGGAAAGUAUUAUGUUACGCCGUUCGGAUCUGCACUUCCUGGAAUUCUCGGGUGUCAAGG,0.938
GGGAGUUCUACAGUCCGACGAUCCAAGUCCUGUGCUACACAUCGUAUGUACCGAAUCGGUUUGGUUUUUGGAAAAAGGAAAGUAUUAUGUUACGCCGUUCGGAUCUGCACUUCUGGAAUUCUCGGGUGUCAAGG,-0.528
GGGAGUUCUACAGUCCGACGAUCACCAUGCAGGUGGGCAUCUUUGGGAAGUGGGGCAAGGGGGGGAUAGGGAGGGGGGUAACACUUUGGGAUCAGGUGGUCCCAGGUCGUUUCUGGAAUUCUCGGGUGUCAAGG,0.546

# Block 4
# Target: Interferon regulatory factor 5, full length, phosphomimetic (IRF5, Homo sapiens, UniProt Q13568-2, residues 1-514, K96S/S451D/S453D/S456D/S462D)
# Method: protein-binding microarray
# Form: double-stranded DNA, one strand shown
# Medium: in vitro
# Tested at: 250 nM
# Setting: 60-bp whole probe
# Added: salmon DNA 0.4 mg/ml
# Reference: random background probes
# Direction: higher = stronger binding
# Shared flanks, not repeated: GCCTAGCAC … GTCTTGATTCGCTTGACGCTGCTG
Sequence,log fluorescence [z-score]
TCAGATTTCTTCCCTGTGACTGTGCTA,0.0811
TACGGTCTCGGTTTCGGGACGTGCTAG,3.65
TTAGATATCGGGTATCGCTTAGTGCTA,3.31
GTAGGACTGCTTTTCCTTTAGTGCTAG,-0.0134
GTGTATATGGACGTCTGAAGGTGCTAG,-0.427
TTAGGTCTCCTACTGTTTTAGTGCTAG,0.16
TCGGTGATCAGTCTGATGGTGTGCTAG,0.0815
TTAGGACTGGCGTTTCGGTTAGTGCTA,5.6
TCATCTGTCAGTTTTGAACTGTGCTAG,0.852
GACGAACTGAGTCTCGAGATGTGCTAG,-0.0165
TTAGCTATCGGTCTCGGTTAGTGCTAG,7.28
TTAGATTTCGGGTTTGGATTAGTGCTA,4.7
AAATTTTGATGAACTTAAGCGTGCTAG,0.324
TTTTTTTTTTTTTTTACTTCGTGCTAG,1.46
GACGGTTCCGATTTCGGGACGTGCTAG,1.47
TTAGGACTGCTTATCATTTAGTGCTAG,0.00396
GACGGTATCGACACTGGGGATGTGCTA,1.77
TTAGGTATCGGACTGAGTTAGTGCTAG,1.62
GACGATTACAGTATCGAGACGTGCTAG,1.76
TCATCCTTCTGACATCAAACTGTGCTA,0.698
GACGATCTCAGTATCGAGATGTGCTAG,1.91
GAGGGTTTCGACACTGGGGACGTGCTA,3.02

# Block 5
# Target: Sal-like protein 4, full length isoform B (SALL4, Homo sapiens, UniProt Q9UJQ4-2, residues 1-616)
# Method: universal PBM
# Form: double-stranded DNA, one strand shown
# Medium: in vitro
# Tested at: not given
# Setting: 8-mer, flanks averaged, mean of replicates
# Direction: higher = stronger binding
# Target sequence (chain): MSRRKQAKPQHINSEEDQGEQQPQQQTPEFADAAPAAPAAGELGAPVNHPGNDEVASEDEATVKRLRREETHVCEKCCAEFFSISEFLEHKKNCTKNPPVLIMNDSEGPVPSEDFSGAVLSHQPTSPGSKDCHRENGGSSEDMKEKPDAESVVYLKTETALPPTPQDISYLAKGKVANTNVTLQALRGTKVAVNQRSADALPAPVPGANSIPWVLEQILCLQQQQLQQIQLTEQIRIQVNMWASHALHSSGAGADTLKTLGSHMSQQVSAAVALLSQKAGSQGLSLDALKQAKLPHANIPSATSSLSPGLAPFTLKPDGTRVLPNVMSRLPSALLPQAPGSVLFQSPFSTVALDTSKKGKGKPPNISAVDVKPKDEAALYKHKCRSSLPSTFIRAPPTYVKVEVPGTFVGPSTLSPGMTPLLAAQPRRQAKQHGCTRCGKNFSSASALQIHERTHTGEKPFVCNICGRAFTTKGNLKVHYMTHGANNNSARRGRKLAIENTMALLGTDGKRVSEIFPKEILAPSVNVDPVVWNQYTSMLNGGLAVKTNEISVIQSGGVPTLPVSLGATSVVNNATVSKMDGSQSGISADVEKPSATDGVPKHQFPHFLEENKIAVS
Sequence,E-score
CGAAGTAC,-0.0121
AAAAATCA,0.247
ATATGGCC,0.00689
TCCCTAAA,0.166
AGTGTACA,0.141
GGTTATAA,0.298
CCGAATTC,-0.152
GCGAATTA,0.23
AGTACCGG,-0.255
CCTGTTCC,-0.107
CACTCCCC,-0.216
ATATTGCC,0.273
CTAAACAG,0.0146
AGGTGCCG,-0.226
AAAATGTA,0.306
CTGACCCA,-0.12
GATTAGAC,0.0692
ATCTCTCA,0.0467
CCAAGCGG,-0.425
ATGATAGC,0.258
GATATTGC,0.205
AGTGTTCA,0.0795
CCAAGGGA,-0.235
AAGTGGCA,-0.0391
CGTAGGTA,-0.0449

# Single results of other studies
# Organism: Saccharomyces cerevisiae
# Effect on: binding
# Method: competitive growth deep sequencing
# Form: peptide
# Strain: cyclin E1-Cln2 fusion strain
# Tested at: concentration not given
# Direction: direction not given
Sequence,setting,growth enrichment score
IPMIAKNLMCELDE,peptide tiling library,0.34
GSPLKALFTSTGL,combined peptide libraries,1
TQERKQIHCLSEDELS,peptide tiling library,0.289

# Repeated from above (block 2):
Modification,mean fluorescence intensity
2'F-ANA at 3 4 9 10 12 13 14 15,212 a.u.
2'F-ANA at 1 4 8 9 10 14,45.1 a.u.
2'F-ANA at 2 3 6 11 12 13 14,426 a.u.
2'F-ANA at 3 5 9,138 a.u.
2'F-ANA at 2 4 6 9 10 11 13 14 15,71 a.u.
2'F-ANA at 1 2 4 5 6 9 12,133 a.u.
